Published values from different studies.
Every numbered part comes from another study and shows a few of its results, in no order.
Sequence of UniProt P19784 (whole entry, looked up): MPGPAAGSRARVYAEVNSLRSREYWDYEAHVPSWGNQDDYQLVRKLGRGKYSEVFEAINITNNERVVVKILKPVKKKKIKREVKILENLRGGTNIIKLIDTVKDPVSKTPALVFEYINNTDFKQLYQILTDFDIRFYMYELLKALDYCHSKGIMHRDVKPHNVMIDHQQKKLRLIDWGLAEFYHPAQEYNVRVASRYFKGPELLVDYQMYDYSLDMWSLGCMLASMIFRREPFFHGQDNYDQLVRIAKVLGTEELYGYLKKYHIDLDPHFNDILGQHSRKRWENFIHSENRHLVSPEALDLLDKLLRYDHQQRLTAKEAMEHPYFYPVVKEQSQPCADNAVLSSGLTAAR
Sequence of UniProt Q8IZF2 (whole entry, looked up): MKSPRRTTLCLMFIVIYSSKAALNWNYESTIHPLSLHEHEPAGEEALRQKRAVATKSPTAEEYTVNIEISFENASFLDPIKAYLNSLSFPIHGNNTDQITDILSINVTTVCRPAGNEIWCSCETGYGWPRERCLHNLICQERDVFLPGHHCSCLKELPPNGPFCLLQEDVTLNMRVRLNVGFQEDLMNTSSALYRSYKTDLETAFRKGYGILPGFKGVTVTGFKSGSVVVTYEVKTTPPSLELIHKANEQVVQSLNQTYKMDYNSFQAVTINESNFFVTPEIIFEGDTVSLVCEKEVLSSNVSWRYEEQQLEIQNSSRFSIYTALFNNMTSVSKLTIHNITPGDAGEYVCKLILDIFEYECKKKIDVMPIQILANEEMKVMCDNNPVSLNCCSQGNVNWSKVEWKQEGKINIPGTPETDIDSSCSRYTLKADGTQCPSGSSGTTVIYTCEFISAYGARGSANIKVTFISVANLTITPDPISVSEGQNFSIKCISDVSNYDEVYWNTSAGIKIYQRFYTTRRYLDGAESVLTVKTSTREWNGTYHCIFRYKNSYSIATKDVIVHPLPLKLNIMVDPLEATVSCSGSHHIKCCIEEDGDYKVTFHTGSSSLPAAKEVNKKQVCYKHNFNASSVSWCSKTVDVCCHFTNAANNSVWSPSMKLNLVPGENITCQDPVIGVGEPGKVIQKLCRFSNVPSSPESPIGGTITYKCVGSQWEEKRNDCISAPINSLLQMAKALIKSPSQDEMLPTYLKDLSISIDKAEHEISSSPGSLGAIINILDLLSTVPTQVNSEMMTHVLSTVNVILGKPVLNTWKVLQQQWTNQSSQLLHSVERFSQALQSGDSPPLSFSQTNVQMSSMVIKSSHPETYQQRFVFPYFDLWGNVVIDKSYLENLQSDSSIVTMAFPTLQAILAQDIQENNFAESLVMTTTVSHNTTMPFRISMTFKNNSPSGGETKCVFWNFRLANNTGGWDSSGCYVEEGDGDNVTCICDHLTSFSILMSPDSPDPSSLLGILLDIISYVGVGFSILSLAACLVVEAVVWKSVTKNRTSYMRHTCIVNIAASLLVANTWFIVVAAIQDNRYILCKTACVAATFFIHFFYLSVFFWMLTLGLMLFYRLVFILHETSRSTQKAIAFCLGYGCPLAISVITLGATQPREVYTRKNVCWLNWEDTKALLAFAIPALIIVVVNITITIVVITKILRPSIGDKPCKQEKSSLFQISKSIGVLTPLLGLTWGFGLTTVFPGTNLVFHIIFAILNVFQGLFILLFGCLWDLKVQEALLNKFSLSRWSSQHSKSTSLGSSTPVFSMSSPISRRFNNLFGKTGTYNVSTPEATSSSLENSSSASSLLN
Sequence of UniProt P34972 (whole entry, looked up): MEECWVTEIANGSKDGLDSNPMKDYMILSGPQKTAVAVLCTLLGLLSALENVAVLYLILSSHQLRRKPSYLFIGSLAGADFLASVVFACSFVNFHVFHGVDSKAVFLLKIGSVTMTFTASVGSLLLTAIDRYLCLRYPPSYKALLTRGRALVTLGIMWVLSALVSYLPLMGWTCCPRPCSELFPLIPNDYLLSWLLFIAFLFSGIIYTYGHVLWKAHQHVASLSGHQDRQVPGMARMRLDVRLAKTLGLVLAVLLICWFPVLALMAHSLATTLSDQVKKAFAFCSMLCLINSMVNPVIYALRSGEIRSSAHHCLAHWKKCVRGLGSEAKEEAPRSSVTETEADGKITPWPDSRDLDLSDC
Sequence of UniProt Q9H1Y3 (whole entry, looked up): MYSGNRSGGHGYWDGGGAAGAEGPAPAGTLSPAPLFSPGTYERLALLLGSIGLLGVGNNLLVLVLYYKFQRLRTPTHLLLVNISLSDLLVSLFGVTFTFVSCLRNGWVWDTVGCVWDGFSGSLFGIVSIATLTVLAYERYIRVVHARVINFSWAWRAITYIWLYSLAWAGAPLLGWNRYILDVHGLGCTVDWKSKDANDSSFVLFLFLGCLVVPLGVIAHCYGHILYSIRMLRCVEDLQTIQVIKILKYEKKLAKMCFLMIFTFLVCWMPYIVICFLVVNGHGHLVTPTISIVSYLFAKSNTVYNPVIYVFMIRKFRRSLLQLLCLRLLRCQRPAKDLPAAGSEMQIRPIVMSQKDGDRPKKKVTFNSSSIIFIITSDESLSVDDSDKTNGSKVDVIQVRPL
Sequence of UniProt O95382 (whole entry, looked up): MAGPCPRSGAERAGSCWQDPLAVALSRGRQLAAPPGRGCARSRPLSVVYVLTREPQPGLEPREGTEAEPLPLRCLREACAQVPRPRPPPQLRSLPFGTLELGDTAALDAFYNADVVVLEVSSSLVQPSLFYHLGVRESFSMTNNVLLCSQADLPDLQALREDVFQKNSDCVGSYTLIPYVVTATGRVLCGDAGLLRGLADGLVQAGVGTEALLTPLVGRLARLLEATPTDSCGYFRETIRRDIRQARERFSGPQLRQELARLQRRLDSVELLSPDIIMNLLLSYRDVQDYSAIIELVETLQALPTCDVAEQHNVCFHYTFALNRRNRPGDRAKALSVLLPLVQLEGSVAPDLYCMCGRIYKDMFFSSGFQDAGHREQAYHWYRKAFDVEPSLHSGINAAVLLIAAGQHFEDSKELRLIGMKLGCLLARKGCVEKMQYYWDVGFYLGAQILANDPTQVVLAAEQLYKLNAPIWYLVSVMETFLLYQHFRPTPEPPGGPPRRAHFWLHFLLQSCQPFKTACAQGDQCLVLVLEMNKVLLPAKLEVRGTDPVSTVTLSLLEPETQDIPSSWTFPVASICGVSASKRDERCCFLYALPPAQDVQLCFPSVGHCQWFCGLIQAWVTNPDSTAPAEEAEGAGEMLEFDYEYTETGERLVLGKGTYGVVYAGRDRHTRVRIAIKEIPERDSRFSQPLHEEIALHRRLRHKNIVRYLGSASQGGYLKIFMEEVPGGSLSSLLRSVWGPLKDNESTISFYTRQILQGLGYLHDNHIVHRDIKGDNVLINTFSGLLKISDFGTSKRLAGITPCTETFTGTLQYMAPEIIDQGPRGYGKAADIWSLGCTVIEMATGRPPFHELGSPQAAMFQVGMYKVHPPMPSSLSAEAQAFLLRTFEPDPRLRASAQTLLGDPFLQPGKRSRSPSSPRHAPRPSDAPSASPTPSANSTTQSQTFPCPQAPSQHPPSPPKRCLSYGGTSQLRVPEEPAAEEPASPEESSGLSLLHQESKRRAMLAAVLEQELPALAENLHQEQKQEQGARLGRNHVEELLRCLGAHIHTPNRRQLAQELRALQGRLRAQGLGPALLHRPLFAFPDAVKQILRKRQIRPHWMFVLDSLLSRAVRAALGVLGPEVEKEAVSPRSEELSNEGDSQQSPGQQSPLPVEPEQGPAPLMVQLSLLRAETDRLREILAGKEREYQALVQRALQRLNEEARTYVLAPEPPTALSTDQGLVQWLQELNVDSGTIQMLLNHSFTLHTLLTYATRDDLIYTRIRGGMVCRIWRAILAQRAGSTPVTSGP
Sequence of UniProt Q02750 (whole entry, looked up): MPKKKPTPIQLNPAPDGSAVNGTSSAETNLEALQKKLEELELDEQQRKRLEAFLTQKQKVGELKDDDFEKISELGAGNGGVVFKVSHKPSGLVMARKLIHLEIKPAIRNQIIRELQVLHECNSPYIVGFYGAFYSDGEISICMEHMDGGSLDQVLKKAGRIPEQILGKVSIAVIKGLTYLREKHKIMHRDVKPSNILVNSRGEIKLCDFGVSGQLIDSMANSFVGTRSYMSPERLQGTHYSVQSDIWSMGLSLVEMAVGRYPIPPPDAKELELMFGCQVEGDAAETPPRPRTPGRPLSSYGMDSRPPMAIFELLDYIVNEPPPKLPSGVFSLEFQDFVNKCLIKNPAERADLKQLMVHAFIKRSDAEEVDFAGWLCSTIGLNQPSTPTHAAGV

Series 1
Target: Cyclin-dependent kinase 7 (CDK7, Homo sapiens, UniProt P50613)
Sequence of UniProt P50613 (whole entry, looked up): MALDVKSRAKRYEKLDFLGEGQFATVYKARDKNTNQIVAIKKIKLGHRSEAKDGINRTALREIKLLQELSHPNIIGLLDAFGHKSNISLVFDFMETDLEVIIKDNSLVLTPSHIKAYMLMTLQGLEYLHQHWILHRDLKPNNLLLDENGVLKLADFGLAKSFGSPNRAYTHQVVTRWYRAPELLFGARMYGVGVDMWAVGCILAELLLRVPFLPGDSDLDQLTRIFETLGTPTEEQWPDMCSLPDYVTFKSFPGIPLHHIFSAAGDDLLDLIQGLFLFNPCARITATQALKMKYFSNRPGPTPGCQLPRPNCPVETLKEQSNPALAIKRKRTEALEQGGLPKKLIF
Effect on: enzyme activity
Action: inhibitor
Concentration: 0.5 µM
Baseline: control
SMILES | remaining activity
Oc1cccc(-c2nc(N3CCOCC3)c3oc4ncccc4c3n2)c1 | 99.9%
O=C1c2ccccc2-c2nc3nnnn3nc21 | 94.1%
Nc1nc(Nc2ccc(S(N)(=O)=O)cc2)nn1C(=S)Nc1c(F)cccc1F | 43.6%
COc1cc2c(Nc3ccc(Br)cc3F)ncnc2cc1OCC1CCN(C)CC1 | 102%
O=c1cc(N2CCOCC2)oc2c(-c3ccccc3)cccc12 | 95.4%
CCCCc1c(-c2ccc(OC)cc2)[nH]c2nccnc12 | 92.6%
O=c1c(-c2ccc(F)cc2)c(-c2ccncc2)[nH]n1-c1ccc(Cl)cc1 | 97.4%
CN1CCN(c2ccc3nc(-c4c(N)c5c(F)cccc5[nH]c4=O)[nH]c3c2)CC1 | 104%
c1cc(-c2cnn3cc(-c4ccc(OCCN5CCCCC5)cc4)cnc23)ccn1 | 83.7%
Cc1ccc(S(=O)(=O)/C=C/C#N)cc1 | 98.2%
c1ccc(-c2n[nH]c3c2oc2ccccc23)cc1 | 101%
N#Cc1cnc2cnc(NCc3cccnc3)cc2c1Nc1ccc(F)c(Cl)c1 | 87.4%
Cc1cc(Nc2cc(N3CCN(C)CC3)nc(Sc3ccc(NC(=O)C4CC4)cc3)n2)[nH]n1 | 101%
O=C1NC(=O)c2c1c1c3ccccc3[nH]c1n1cncc21 | 92.3%
O=C(c1cc2cc(O)ccc2[nH]1)c1cc2cc(O)ccc2[nH]1 | 93.5%
CC(C)n1cnc2c(Nc3cccc(Cl)c3)nc(NCCO)nc21 | 78.5%
CCCCc1c(-c2ccc(O)cc2)[nH]c2nccnc12 | 88.2%
FC(F)(F)c1ccc(/C=C/c2nc(COc3ccc(CCCCn4ccnn4)cc3)co2)cc1 | 107%
O=C1NC(=O)/C(=C/c2ccc3c(c2)OC(F)(F)O3)S1 | 98.3%
CNc1cc2c(Nc3cccc(Br)c3)ncnc2cn1 | 102%
O=C(O)/C=C/c1cc(Br)c(Br)c(Br)c1Br | 88.6%
C[C@@H](N)[C@H]1CC[C@H](C(=O)Nc2ccncc2)CC1 | 97.9%
CCN(CC)CCCCN1c2ccccc2Oc2ccc(Cl)cc21 | 99%
COc1ccc(COc2ccc(Cc3cnc(N)nc3N)cc2OC)cc1 | 100%

Series 2
SMILES: CCN(c1nc(N)c(C(=O)N=C(N)N)nc1Cl)C(C)C
Effect on: β-arrestin recruitment
Action: agonist
Method: PRESTO-Tango
Concentration: 10 µM
Baseline: untreated
target | fold over basal
Trace amine-associated receptor 9 (TAAR9, Homo sapiens, UniProt Q96RI9) | 0.87 fold
HRH3 (Homo sapiens, UniProt Q9Y5N1) | 0.58 fold
G-protein coupled receptor family C group 5 member B (GPRC5B, Homo sapiens, UniProt Q9NZH0) | 0.65
CNR2 (Homo sapiens, UniProt P34972) | 1.24
CHRM4 (Homo sapiens, UniProt P08173) | 0.73
VIPR1 (Homo sapiens, UniProt P32241) | 4.45 fold
Opsin-3 (OPN3, Homo sapiens, UniProt Q9H1Y3) | 1.09
GNRHR (Homo sapiens, UniProt P30968) | 1.08 fold
Adhesion G-protein coupled receptor D1 (ADGRD1, Homo sapiens, UniProt Q6QNK2) | 0.59
Adhesion G protein-coupled receptor F5 (ADGRF5, Homo sapiens, UniProt Q8IZF2) | 0.87
Glucagon receptor (GCGR, Homo sapiens, UniProt P47871) | 1.07 fold

Series 3
SMILES: Cc1c(NC(=O)c2cc(C(N)=O)nc3cc(F)ccc23)c(C(F)(F)F)nn1Cc1ccc(C(C)(C)C)cc1
Effect on: cell-free assay
Method: competition with immobilised ligand
Concentration: 1 µM
target | remaining binding [%]
SRC (Homo sapiens, UniProt P12931) | 100
MAP3K6 (Homo sapiens, UniProt O95382) | 100
CSNK1A1L (Homo sapiens, UniProt Q8N752) | 93
TTK (Homo sapiens, UniProt P33981) | 79
CHUK (Homo sapiens, UniProt O15111) | 100
ACVR1B (Homo sapiens, UniProt P36896) | 80

Series 4
Cell line: mouse MPNST tumor cells
Method: high-content nuclear imaging
Item: cell number
Concentration: 10 µM
Time: 12 h
Setting: mean of 2 replicates
Baseline: plate mean
Reading: higher = more cells
Structure (SMILES) | nuclei count
CC(C)c1cccc2c(-c3ccccc3)cc(-c3ccc(-c4ccc(C(=O)O)cc4)[nH]3)nc12 | 3.03 z-score
CCOC(=O)c1c(C)[nH]c2ccc3c(c12)CN1CCc2cc(OC)ccc2C1O3 (stereo not shown) | -4.11 z-score
COc1ccc(-c2c(C)nn3c(C(F)(F)F)cc(C)nc23)c(F)c1F | 0.532 z-score
Cc1ccc(-c2ccc(F)cc2COc2ccc(CCC(=O)O)cc2)cc1 | 2.23 z-score
OCC(O)COc1ccc(Cl)cc1 (stereo not shown) | 0.792 z-score
O=C(Nc1ccccc1)c1cc([N+](=O)[O-])ccc1Cl | -0.534 z-score
COc1cc(N)c(Cl)cc1C(=O)NC1CCN(Cc2ccccc2)CC1 | 1.73 z-score
C=C1/C(=C\C=C2/CCC[C@]3(C)[C@@H]([C@H](C)CCCC(C)C)CC[C@@H]23)C[C@@H](O)C[C@@H]1O | -1.9 z-score

Series 5
Compound: CC(C)S(=O)(=O)c1ccc2nccc(Nc3ccc4sc(C5CCCC5)nc4c3)c2c1
Effect on: enzyme activity
Action: inhibitor
Concentration: 1 µM
target | activity vs control [%]
PAK2 (Homo sapiens, UniProt Q13177) | 92
WNK1 (Homo sapiens, UniProt Q9H4A3) | 91.5
AAK1 (Homo sapiens, UniProt Q2M2I8) | 95
MAP2K1 (Homo sapiens, UniProt Q02750) | 99
PNCK (Homo sapiens, UniProt Q6P2M8) | 115
CSNK2A2 (Homo sapiens, UniProt P19784) | 102

For quick reference, copied from above (series 4):
Structure (SMILES) | nuclei count
C=C1/C(=C\C=C2/CCC[C@]3(C)[C@@H]([C@H](C)CCCC(C)C)CC[C@@H]23)C[C@@H](O)C[C@@H]1O | -1.9 z-score
COc1cc(N)c(Cl)cc1C(=O)NC1CCN(Cc2ccccc2)CC1 | 1.73 z-score
Cc1ccc(-c2ccc(F)cc2COc2ccc(CCC(=O)O)cc2)cc1 | 2.23 z-score
OCC(O)COc1ccc(Cl)cc1 (stereo not shown) | 0.792 z-score
CC(C)c1cccc2c(-c3ccccc3)cc(-c3ccc(-c4ccc(C(=O)O)cc4)[nH]3)nc12 | 3.03 z-score
COc1ccc(-c2c(C)nn3c(C(F)(F)F)cc(C)nc23)c(F)c1F | 0.532 z-score
CCOC(=O)c1c(C)[nH]c2ccc3c(c12)CN1CCc2cc(OC)ccc2C1O3 (stereo not shown) | -4.11 z-score
O=C(Nc1ccccc1)c1cc([N+](=O)[O-])ccc1Cl | -0.534 z-score
